Experimental data of several laboratories.
Each line is one published result; not all experiments were run side by side. Several values in a cell are separate wells, animals, samples, runs or records. ± marks the error that the study gave.

For `COc1cc(N2CCN(C(=O)CN)CC2)ccc1Nc1ncc(Cl)c(Nc2ccccc2P(C)(C)=O)n1`, the viability was 99% (NCI-H3122; cell growth or viability, CCK-8; 2.5 nM, 48 h).
`COc1ccc(Cn2cc(CO[C@@H]3O[C@H]4[C@H](OC[C@H]4O)[C@H]3N=[N+]=[N-])nn2)cc1`: viability “not toxic” (HCT-116; cytotoxicity, CellTiter-Glo; up to 30 µM, 72 h).
With `COc1cc(Oc2c(O)c(Cl)c(C)c(Cl)c2OC)c(C(=O)O)c(C)c1O` the viability was 104 ± 5.9% (T47D; MTT; 10 or 50 µM, 48 h).
With `COc1cc(N2CCN(C(=O)C3CCCN3)CC2)ccc1Nc1ncc(Cl)c(Nc2ccccc2P(C)(C)=O)n1` (stereo not drawn) the viability was 96% and 94% and 98% (Ba/F3 EML4-ALK; cell growth or viability, CCK-8; 1 µM, 1 h).
`[BH3-][P+]1(c2ccccc2)CCCCC1` has a viability of 93.7% (SW-620; trypan blue; IC50, 72 h).
With `O=C(O)c1c(O)cc(O[C@@H]2O[C@H](CO)[C@@H](O)[C@H](O)[C@H]2O)cc1/C=C/c1ccccc1` the viability was greater than 50% (HT-22; cell growth or viability, crystal violet; 50 µM, 48 h).
For `COc1cc(Oc2c(O)c(Br)c(C)c(Br)c2OC)c(C(=O)O)c(C)c1O`, the viability was 110 ± 4.1% (T47D; MTT; 10 or 50 µM, 48 h).
The viability of `CC1(C)C(=CC=C2CCCC(C=CC3=[N+](CCC[N+](C)(C)C)c4ccc(S(=O)(=O)O)cc4C3(C)C)=C2SCCOCCOCCC(=O)O)N(CCC[N+](C)(C)C)c2ccc(S(=O)(=O)O)cc21` is reported as roughly 100% (H-1793; CCK-8; 25 µM).
With `CN1CCCNC(=O)c2cccc(c2)C(=O)NCCCN(C)CCCNc2cccc3c2C(=O)c2cccc(c2C3=O)NCCC1` the viability was 4.03% (HSC-2; cell growth or viability, CCK-8; 15 µM, 48 h).

Some of these lines once more:
With `COc1cc(N2CCN(C(=O)C3CCCN3)CC2)ccc1Nc1ncc(Cl)c(Nc2ccccc2P(C)(C)=O)n1` (stereo not drawn) the viability was 96% and 94% and 98% (Ba/F3 EML4-ALK; cell growth or viability, CCK-8; 1 µM, 1 h).
`[BH3-][P+]1(c2ccccc2)CCCCC1` has a viability of 93.7% (SW-620; trypan blue; IC50, 72 h).
